Results pooled from the literature.
Protocols differ between the studies behind these lines. ± gives the spread as reported.
Cell line: MCF7

SMILES = NCCNc1n[n+]([O-])c2ccccc2[n+]1[O-]; read-out = cytotoxicity; technique = MTT; time = 24 h; setting = normoxia; IC50 = 68 ± 2.2 µM
SMILES = C#CCN1c2cccnc2Sc2cccnc21; read-out = cell growth or viability; technique = WST-1; time = 72 h; IC50 = < 5 µg/mL
SMILES = [O-][n+]1nc(NCCNc2n[n+]([O-])c3ccccc3[n+]2[O-])nc2ccccc21; read-out = cytotoxicity; technique = MTT; matrix = 10% FBS medium; time = 6 h + 18 h; setting = hypoxia 3% O2; IC50 = 11.7 ± 0.9 µM
SMILES = O=S(=O)(Sc1ccc(Cl)cc1)c1ccc(Cl)cc1; read-out = cell growth; technique = sulforhodamine B; IC50 = 10 µM
SMILES = Cn1nnc2c(C(N)=O)ncn2c1=O; read-out = cell proliferation; technique = MTS; time = 72 h; together with = 10 µM HNL; IC50 = 126 µM
SMILES = COc1ccc(/C=C\c2cc(OC)c(OC)c(OC)c2)cc1O; read-out = cell growth; technique = sulforhodamine B; IC50 = 0.021 ± 0.004 µM
SMILES = [O-][n+]1nc(NCCCCCCCCNc2n[n+]([O-])c3ccccc3[n+]2[O-])nc2ccccc21; read-out = cytotoxicity; technique = MTT; time = 24 h; setting = normoxia; IC50 = > 30 µM
SMILES = CCOc1nc2c(c(-c3ccc(Cl)cc3)c(C#N)c(=O)n2C2CCCCC2)c(=O)[nH]1; read-out = cell growth or viability; technique = MTT; IC50 = 9.6 µM
SMILES = Cc1ccc(-n2c(SCC(=O)NNC(=O)Nc3ccc(C(F)(F)F)cc3Cl)nc3ccccc3c2=O)cc1; read-out = cell growth or viability; technique = MTT; IC50 = 38.4 µM
SMILES = [O-][n+]1nc(NCCCCNc2n[n+]([O-])c3ccccc3[n+]2[O-])nc2ccccc21; read-out = cytotoxicity; technique = MTT; time = 24 h; setting = normoxia; IC50 = > 30 µM
SMILES = N#Cc1c(-c2ccc(Cl)cc2)c(C(N)=O)c(N)n(C2CCCCC2)c1=O; read-out = cell growth or viability; technique = MTT; IC50 = 16.9 µM
SMILES = [O-][n+]1nc(NCCCCCCCNc2n[n+]([O-])c3ccccc3[n+]2[O-])nc2ccccc21; read-out = cytotoxicity; technique = MTT; matrix = 10% FBS medium; time = 6 h + 18 h; setting = hypoxia 3% O2; IC50 = > 30 µM
SMILES = O=C(c1ccc2ccccc2c1)c1cn(-c2ccccc2)nc1C1=Nn2c(SCCSc3nnc4n3N=C(c3nn(-c5ccccc5)cc3C(=O)c3ccc5ccccc5c3)CS4)nnc2SC1; read-out = cell growth or viability; technique = MTT; time = 48 h; IC50 = 7.69 µM
SMILES = NCCCCCCCNc1n[n+]([O-])c2ccccc2[n+]1[O-]; read-out = cytotoxicity; technique = MTT; time = 24 h; setting = normoxia; IC50 = > 90 µM
SMILES = Clc1ccc(SSc2ccc(Cl)cc2)cc1; read-out = cell growth or viability; technique = SRB; IC50 = > 10 µM
SMILES = Cc1ccc(-n2c(SCC(=O)NNC(=O)Nc3ccccc3)nc3ccccc3c2=O)cc1; read-out = cell growth or viability; technique = MTT; IC50 = 5.86 µM
SMILES = C=CCc1ccc(O)c(-c2ccc(O)c(CC=C)c2)c1; read-out = cell proliferation; technique = MTS; time = 24 h; together with = 10 µM BLM; IC50 = 2.51 µM
SMILES = O=C1CCCCC1=C1Sc2nc3ccc(S(=O)(=O)N4CCCC4)cc3nc2S1; read-out = cell growth; time = 24 h; IC50 = ≤ 8.78 µM
SMILES = CCC(O)CC(=O)O[C@@H]1C[C@@H]2[C@@]3(C)CCC[C@](C)(CC)[C@@H]3CC[C@@]2(C)[C@@H]2C[C@@H](O)C3=C(C(=O)O[C@@H]3C)[C@@]12C (stereo partly drawn); read-out = cell growth or viability; technique = CCK-8; time = 24 h; IC50 = ≤ 25 µM
SMILES = Cc1ccc(NC(=O)NNC(=O)CSc2nc3ccccc3c(=O)n2-c2ccc(Cl)cc2)cc1; read-out = cell growth or viability; technique = MTT; IC50 = 59.5 µM
SMILES = COc1cc(-c2cc(-c3ccc(Cl)cc3)[nH]c(=O)c2C#N)ccc1O; read-out = cell growth or viability; technique = MTT; IC50 = 6.17 µM
SMILES = Cc1c(N)nc([C@H](CC(N)=O)NC[C@H](N)C(N)=O)nc1C(=O)N[C@H](C(=O)N[C@H](C)[C@@H](O)[C@H](C)C(=O)N[C@H](C(=O)NCCC1=N[C@@H](c2nc(C(=O)NCCCCN=C(N)N)cs2)CS1)[C@@H](C)O)[C@@H](O[C@@H]1O[C@@H](CO)[C@@H](O)[C@H](O)[C@@H]1O[C@H]1O[C@H](CO)[C@@H](O)[C@H](OC(N)=O)[C@@H]1O)c1cnc[nH]1; read-out = cell growth or viability; technique = resazurin; time = 96 h; IC50 = 4.17 µg/mL
SMILES = Cc1nc2ccccc2nc1SCC(=O)Nc1ccc(C(=O)Nc2ccc([N+](=O)[O-])cc2O)cc1; read-out = cell growth or viability; technique = MTT; IC50 = 61.5 µM
SMILES = CNC(=O)c1cc(Oc2ccc(NC(=O)Nc3ccc(Cl)c(C(F)(F)F)c3)cc2)ccn1; read-out = cytotoxicity; technique = MTT; time = 24 h; IC50 = 7.29 ± 0.3 µM
SMILES = [O-][n+]1nc(NCCCNc2n[n+]([O-])c3ccccc3[n+]2[O-])nc2ccccc21; read-out = cytotoxicity; technique = MTT; time = 24 h; setting = normoxia; IC50 = 68.3 µM
SMILES = CCCCCCNC(=O)n1cc(F)c(=O)[nH]c1=O; read-out = cell growth or viability; technique = MTT; time = 72 h; IC50 = 230 µM
SMILES = COc1ccc(C=C(C#N)C(=O)Nc2nnc(NC(=O)c3ccccc3)s2)cc1; read-out = cell growth or viability; technique = MTT; time = 48 h; IC50 = < 10 µM
SMILES = O=c1[nH]cc(F)c(=O)[nH]1; read-out = cell growth or viability; time = 24 h; IC50 = 78.6 µM
SMILES = Cc1cc(C)n(-c2nnc(NC(=O)c3ccccc3)s2)c(=O)c1C#N; read-out = cell growth or viability; technique = MTT; time = 48 h; IC50 = 14.1 µM
SMILES = Clc1ccccc1SSc1ccccc1Cl; read-out = cell growth or viability; technique = SRB; IC50 = > 10 µM
SMILES = COc1ccc(-n2c(SCC(=O)NNC(=O)Nc3ccc(Cl)cc3)nc3ccccc3c2=O)cc1; read-out = cell growth or viability; technique = MTT; IC50 = 55.5 µM
SMILES = Cc1nc2ccccc2n(CC(=O)Nc2ccc(C(=O)NNC(=O)c3ccccc3O)cc2)c1=O; read-out = cell growth or viability; technique = MTT; IC50 = 22.3 µM
SMILES = N#Cc1c(-c2ccc(Cl)cc2)c2c(=O)[nH]c(=S)[nH]c2n(C2CCCCC2)c1=O; read-out = cell growth or viability; technique = MTT; IC50 = 1.4 µM
SMILES = O=C(c1ccc2ccccc2c1)c1cn(-c2ccccc2)nc1C1=Nn2c(SCCCSc3nnc4n3N=C(c3nn(-c5ccccc5)cc3C(=O)c3ccc5ccccc5c3)CS4)nnc2SC1; read-out = cell growth or viability; technique = MTT; time = 48 h; IC50 = 42.1 µM
SMILES = CC/C(=C(\c1ccccc1)c1ccc(OCCN(C)C(=O)CCCCCCOc2ccc3[nH]cc(CCNC(C)=O)c3c2)cc1)c1ccccc1; read-out = cell survival; technique = MTT; time = day 9; setting = dosed days 2, 4, 7; IC50 = 55 µM
SMILES = C=CCc1ccc(OCc2nn(CN3CCOCC3)c(=S)o2)c(OC)c1; read-out = cell growth or viability; technique = MTT; time = 72 h; IC50 = 1.71 µM
SMILES = CN1CCC2(CC1)C/C(=N\N=C\c1ccc(N(C)C)cc1)c1ccccc1O2; read-out = cell growth or viability; technique = MTT; time = 48 h; IC50 = 26.4 µM
SMILES = O=C(CSc1nc2ccccc2c(=O)n1-c1ccc(Cl)cc1)NNC(=O)NCc1ccccc1; read-out = cell growth or viability; technique = MTT; IC50 = 68.1 µM
SMILES = COc1cc(-c2cc(-c3ccc(Cl)cc3)n(CN(C)C)c(=O)c2C#N)ccc1O; read-out = cell growth or viability; technique = MTT; IC50 = 2.14 µM
SMILES = N#CC(C(=O)NN=C1C(=O)Nc2ccccc21)=C1Sc2nc3ccc(S(=O)(=O)N4CCCC4)cc3nc2S1; read-out = cell growth; time = 24 h; IC50 = 24.3 ± 1.8 µM
SMILES = O=S(=O)(Sc1cccc(Br)c1)c1cccc(Br)c1; read-out = cell growth; technique = sulforhodamine B; IC50 = > 10 µM
SMILES = N#CC(C(=O)Nc1nnc(NC(=O)c2ccccc2)s1)=C1Oc2cccnc2O1; read-out = cell growth or viability; technique = MTT; time = 48 h; IC50 = 36.8 µM
SMILES = NCCCn1c2c(c3ccc(N)cc3c1=O)C(=O)c1ccccc1-2; read-out = cell growth or viability; technique = SRB; time = 24 h; IC50 = 1.09 µM
SMILES = Cc1cc(-c2ccccc2)n(-c2nnc(NC(=O)c3ccccc3)s2)c(=O)c1C#N; read-out = cell growth or viability; technique = MTT; time = 48 h; IC50 = 72.4 µM
SMILES = N#CC(C#N)=C1Sc2nc3ccc(S(=O)(=O)N4CCCC4)cc3nc2S1; read-out = cell growth; time = 24 h; IC50 = 79.4 ± 4.1 µM
SMILES = O=C(N/C(=C/c1ccc(Cl)cc1)c1nc2ccccc2c(=O)o1)c1ccccc1; read-out = cell growth or viability; technique = MTT; time = 48 h; IC50 = 20.4 µM
SMILES = N#CC(=Cc1ccc([N+](=O)[O-])cc1)C(=O)Nc1nnc(NC(=O)c2ccccc2)s1; read-out = cell growth or viability; technique = MTT; time = 48 h; IC50 = 45.1 µM
SMILES = O=C(CSc1nc2ccccc2c(=O)n1-c1ccc(Cl)cc1)NNC(=O)Nc1ccc(C(F)(F)F)cc1Cl; read-out = cell growth or viability; technique = MTT; IC50 = 26.3 µM

Repeated from above:
SMILES = CCOc1nc2c(c(-c3ccc(Cl)cc3)c(C#N)c(=O)n2C2CCCCC2)c(=O)[nH]1; read-out = cell growth or viability; technique = MTT; IC50 = 9.6 µM
SMILES = Cn1nnc2c(C(N)=O)ncn2c1=O; read-out = cell proliferation; technique = MTS; time = 72 h; together with = 10 µM HNL; IC50 = 126 µM
SMILES = Clc1ccccc1SSc1ccccc1Cl; read-out = cell growth or viability; technique = SRB; IC50 = > 10 µM
SMILES = O=S(=O)(Sc1cccc(Br)c1)c1cccc(Br)c1; read-out = cell growth; technique = sulforhodamine B; IC50 = > 10 µM
SMILES = CCCCCCNC(=O)n1cc(F)c(=O)[nH]c1=O; read-out = cell growth or viability; technique = MTT; time = 72 h; IC50 = 230 µM
SMILES = COc1ccc(C=C(C#N)C(=O)Nc2nnc(NC(=O)c3ccccc3)s2)cc1; read-out = cell growth or viability; technique = MTT; time = 48 h; IC50 = < 10 µM
